Published values collected from several papers.
Each line is one published result; not all experiments were run side by side. Several values in a cell are separate wells, animals, samples, runs or records. Numbers after ± are the reported error.
Cell line: A498

C#C[C@@]1(O)[C@@H](CO)O[C@@H](n2ccc3c(N)ncnc32)[C@@H]1O gave a TGI of 3740 nM (SRB; NCI-60 screen).
NNc1nc(-c2ccc(Cl)cc2)c2c(NC(=O)c3ccccc3)nnc-2[nH]1 has a cell growth of 114% (SRB; 10 µM, NCI60 single-dose screen; relative to: untreated).
With Cn1cncc1C1=CN(c2ncnc3[nH]cnc23)CCS1 the GI50 was 4800 nM (renal cancer).
Cc1cc(C)n(-c2nc(-c3ccc(Cl)cc3)c3c(NC(=O)c4ccccc4)nnc-3[nH]2)n1 gave a cell growth of 119% (SRB; 10 µM, NCI60 single-dose screen; relative to: untreated).
With NC(=S)N/N=C1\C(=O)N(CCn2ncc3c(=O)[nH]cnc32)c2ccc(F)cc21 the IC50 was 41.7 ± 19.2 µg/mL (cell growth, SRB; 72 h).
The cell growth of O=C(Nc1nnc2n3c(nc(-c4ccc(Cl)cc4)c1-2)SCC3=O)c1ccccc1 is reported as 108% (SRB; 10 µM, NCI60 single-dose screen; relative to: untreated).
CCn1cc(-c2cc(Cn3ccnc3)cc3c2CCN([C@H](c2cc(OC)ccn2)C2CC2)C3=O)c(C(F)(F)F)n1 has an EC50 of > 30000 nM (cell growth, inhibitor; 120 h).
Nc1ncnc2c1ncn2CCN1C(=O)C(=O)c2cc(F)ccc21 gave an IC50 of 54 ± 7.81 µg/mL (cell growth, SRB; 72 h).
COc1cnc2cccc(N3CCc4c(cc(Cn5ccnc5C)cc4-c4cn(C)nc4C(F)(F)F)C3=O)c2c1 has an EC50 of 1820 nM (cell growth, inhibitor; 120 h).
For NC(=S)N/N=C1\C(=O)N(CCn2ncc3c(=O)[nH]cnc32)c2ccc(Cl)cc21, the IC50 was 5.83 ± 2.81 µg/mL (cell growth, SRB; 72 h).
For O=C1NCCc2[nH]c(-c3ccncc3)cc21, the IC50 was > 10000 nM (MTS; NCI60 panel).
With Nc1ncnc2c1ncn2CCN1C(=O)C(=O)c2cc(Cl)ccc21 the IC50 was 17.9 ± 4.24 µg/mL (cell growth, SRB; 72 h).
For Cc1n[nH]c2nc(-c3ccc(Cl)cc3)c3c(NC(=O)c4ccccc4)nnc-3n12, the cell growth was 106% (SRB; 10 µM, NCI60 single-dose screen; relative to: untreated).
The IC50 of O=C1C(=O)N(CCn2ncc3c(=O)[nH]cnc32)c2ccc(Cl)cc21 is reported as 5.6 ± 1.57 µg/mL (cell growth, SRB; 72 h).
For C#C[C@@]1(O)[C@@H](CO)O[C@@H](n2cc(Br)c3c(N)ncnc32)[C@@H]1O, the TGI was 828 nM and 417 nM (SRB; NCI-60 screen).

For quick reference, copied from above:
The IC50 of O=C1C(=O)N(CCn2ncc3c(=O)[nH]cnc32)c2ccc(Cl)cc21 is reported as 5.6 ± 1.57 µg/mL (cell growth, SRB; 72 h).
